Experimental data pooled from the literature.
A part holds a random share of what one study measured.

Set 1
Target: Histone acetyltransferase KAT6A, winged helix 2, GST fusion (KAT6A, Homo sapiens, UniProt Q92794, residues 85-181)
Method: protein binding microarray
Form: double-stranded DNA, one strand shown
Sample: in vitro
Tested at: not given
Setting: 8-mer, flanks averaged, mean of 2 arrays, mostly near background
Reference: not given
Direction: higher = stronger binding
Residues (chain): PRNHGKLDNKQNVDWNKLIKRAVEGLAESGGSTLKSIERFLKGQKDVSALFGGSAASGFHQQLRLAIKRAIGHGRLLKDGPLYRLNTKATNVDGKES
Sequence | E-score
TGTGCAAA | -0.252
CCCATGTA | -0.0415
AAGGGCTC | -0.088
GCGTGCCA | 0.0524
AATTTCGG | 0.0201
GCGCTATA | -0.155
ATAATCAG | 0.0232
GGGCCTAA | -0.0181
GGGCACAC | 0.0402
AAATTTGG | -0.156
AGCCCACT | -0.00974
ATTCAGCA | 0.111
AGATTATG | -0.145
GGTATACC | 0.0412
GGGGCCCC | 0.114
GATGATAC | 0.0778
GTGCTGAA | -0.0299
CAATCGTG | -0.148

Set 2
Target: Fragile X messenger ribonucleoprotein 1, C-terminal low-complexity region (Fmr1, Mus musculus, UniProt P35922)
Method: RNA Bind-n-Seq
Form: RNA
Sample: in vitro
Tested at: 200 nM
Setting: whole 134-nt RNA, ends assumed
Added: 150 mM LiCl
Reference: input library
Direction: higher = stronger binding
All molecules: 7-deaza-guanosine replaces G
Shared flanks, not repeated: GGGAGUUCUACAGUCCGACGAUC … UGGAAUUCUCGGGUGUCAAGG
Sequence | log2 enrichment
UUCCCCACUUCCUUCCCUCCAGUCCCCACUCACUCACAUGCACACACUAACCUUGGAGCCGAUGGGAUUGAGUGACUGGCACUUGGGACC | 1.66
CCUGUGCUACACAUCGUAUGUACCGAAUCGGAAAAAAAGGGAAAAAAAGGGAAAAAAAGGGAAAGUAUUAUGUUACGCCGUUCGGAUCUG | -0.426
UCAAGUCCUGUGCUACACAUCGUAUGUACCGAAUCGGUGGUUUUUUUGGAAAGGAAAGUAUUAUGUUACGCCGUUCGGAUCUGCACUUCC | -0.723
AGUCCUGUGCUACACAUCGUAUGUACCGAAUCGGGGAAAAGGGAAAAGGGAAAAGGGAAAGUAUUAUGUUACGCCGUUCGGAUCUGCACU | -0.72
CUGUGCUACACAUCGUAUGUACCGAAUCGGGGUUUUUUUGGGGUUUUUUUGGUUUUUUUGGAAAGUAUUAUGUUACGCCGUUCGGAUCUG | 0.834
GUCCUGUGCUACACAUCGUAUGUACCGAAUCGGGGUGGGGAAAAAGGGGAAAAAGGGGAAAGUAUUAUGUUACGCCGUUCGGAUCUGCAC | 0.915
UGCUUCAUCGCCUUGUGCUCCUGCCCCUGGGAGCUGUGGAUCCCAGAUCCAGAUGACAGCCCACCUUGCUGGCAGGAUGCGCCAAUCCCC | -0.0237
AGUCCUGUGCUACACAUCGUAUGUACCGAAUCGGGGAAAAAGGGGUUUGGGGAGGGGAAAGUAUUAUGUUACGCCGUUCGGAUCUGCACU | -0.899

Set 3
Target: Sal-like protein 4, full length isoform A (SALL4, Homo sapiens, UniProt Q9UJQ4, residues 1-1053)
Sequence of UniProt Q9UJQ4 (whole entry, looked up): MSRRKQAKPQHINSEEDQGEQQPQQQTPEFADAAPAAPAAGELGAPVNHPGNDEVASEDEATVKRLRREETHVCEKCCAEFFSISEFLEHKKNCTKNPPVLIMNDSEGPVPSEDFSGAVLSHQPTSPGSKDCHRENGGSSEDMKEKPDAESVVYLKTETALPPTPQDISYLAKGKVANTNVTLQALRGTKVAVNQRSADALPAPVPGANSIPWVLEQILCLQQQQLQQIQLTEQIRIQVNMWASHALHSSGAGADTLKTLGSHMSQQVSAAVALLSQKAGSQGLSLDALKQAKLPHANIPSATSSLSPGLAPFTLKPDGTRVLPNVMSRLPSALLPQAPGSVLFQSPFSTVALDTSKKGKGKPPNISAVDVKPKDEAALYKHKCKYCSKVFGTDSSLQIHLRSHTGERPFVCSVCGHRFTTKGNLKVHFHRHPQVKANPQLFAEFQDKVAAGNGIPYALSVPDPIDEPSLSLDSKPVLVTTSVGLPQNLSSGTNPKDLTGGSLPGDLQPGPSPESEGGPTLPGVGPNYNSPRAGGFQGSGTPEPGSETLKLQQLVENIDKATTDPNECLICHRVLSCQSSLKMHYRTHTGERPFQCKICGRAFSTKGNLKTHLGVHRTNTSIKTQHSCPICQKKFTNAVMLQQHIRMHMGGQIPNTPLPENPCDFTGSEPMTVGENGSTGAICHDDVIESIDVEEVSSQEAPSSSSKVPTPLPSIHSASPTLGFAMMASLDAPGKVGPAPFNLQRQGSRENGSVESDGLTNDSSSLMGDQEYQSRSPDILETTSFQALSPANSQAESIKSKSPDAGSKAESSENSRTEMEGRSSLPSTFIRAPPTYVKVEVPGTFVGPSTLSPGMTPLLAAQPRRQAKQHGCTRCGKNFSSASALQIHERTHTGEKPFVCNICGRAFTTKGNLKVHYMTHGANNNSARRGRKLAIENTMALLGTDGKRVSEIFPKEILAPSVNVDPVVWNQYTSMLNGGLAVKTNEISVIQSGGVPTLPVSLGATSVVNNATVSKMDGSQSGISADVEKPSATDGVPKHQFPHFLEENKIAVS
Method: universal PBM
Form: double-stranded DNA, one strand shown
Sample: in vitro
Tested at: 600 nM
Setting: 8-mer, flanks averaged, mean of replicates
Direction: higher = stronger binding
Sequence | E-score
ACGAAATG | 0.0267
CCGCTGCA | -0.186
AAATTAGA | 0.284
AAAAGCCA | 0.0908
CTAAGCTA | 0.0657
AAAACTCG | 0.149
GCCAGTGA | -0.215
AGGACAGC | -0.278
GGGAACAA | -0.0004
GCTTGTCC | -0.165
ATCTCGAA | 0.0275
CGTGGTTA | -0.0573
AGCCAGCC | -0.249
ATACCCTA | 0.161
AGTAATCC | 0.1
GGCGTCCC | -0.353

Other studies, line by line
Substance | target | assay | test system | setting | how to read | quantity | result
PhoQ, residues 284 288 289 292 302 303 SLKLQV | PhoP, residues 12 14 15 18 19 IQFRS (Escherichia coli, UniProt P23836) | Sort-seq, item: YFP reporter | E. coli | PhoQ-PhoP variant library, added: 10 µM Mg2+ | reference: high Mg2+ state, higher = stronger signaling | fold induction | 50.4
